Measurements of several laboratories.
Parts stem from different laboratories: compare values within a part only. Substitutions count along the parent as printed.

Series 1
Target: RNA binding protein fox-1 homolog 2, RRM domain, GST-SBP tag (RBFOX2, Homo sapiens, UniProt O43251-10, residues 100-194)
Method: RNA Bind-n-Seq
Form: RNA
Matrix: in vitro
Concentration: 365 nM
Setting: natural RNA segment, single round, ends assumed
Reference: no-protein control
Reading: higher = stronger binding
Shared flanks, not repeated: GGGAGUUCUACAGUCCGACGAUC … UGGAAUUCUCGGGUGCCAA
Construct (chain): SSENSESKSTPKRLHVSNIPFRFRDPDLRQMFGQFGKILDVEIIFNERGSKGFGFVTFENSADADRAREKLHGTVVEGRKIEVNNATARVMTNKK
| Oligonucleotide | RBNS enrichment (R) |
| --- | --- |
| ACUAAAAAGACAUGUUAGACUUUUUUUAAAAAAGCACUUAUGUUUUGAAAAUAGAAUAAAUAAUAAGAAUUUCCAAUUAAAUCAUGUCUGGUGCCAAUGUGCAAAACUUC | 0.55 |
| GCCAAGGUAGGGGUGGUCUCAGACCCUCCUGGGUCCCCUGACCAUACAGGGCCUGGUGGUCUGCUCCAUCUGGCCCCUGGCCCAUCUCUUCUGUGCCUUAGUCACAUAUG | 0.202 |
| CUCCCGUCGUACCGCUUUAACCCGGACAGCCAUCAGUCGGAGCAGACGCGGUGUGUGGUCUGCUUCAGUGACUUCGAGGCGCGGCAGCUGCUCCGAGUCCUCCCCUGCAA | 0.353 |
| CUGUGCUCCUGUGAACUGCAGUGCUCCUUGUGCCUGCUGUGAACUGCAGUGCUCCCCAGUGCAGUCCUGUAAUCUGCAGCAGGGAGCACGUCCUCUGCUCUCUGCUAUGU | 0.891 |
| CCUGUGACGCCUGAGGCCUCCAGCAUAGCACCGUGGGGCCAGGGAGCCCGAAUGGCCCCAGCAUCAGUGCCAAGGCUGAGCUGACGACUCUCCAGUGUUGUCCAAGGAAA | 0.572 |
| UAUGUGACAACUGCCAAAAAAGUAUUUUUAAGAAUUUAAGCGAAAUAAACAGUUACUCUUUGGUAAAGCCUAGUUGUAUGCUUACAUUUUUAAAUUAUACUCUCAUUGUA | 0.438 |
| AGGAAAUGCAGUUUCAUGUAAUCCCUGUGAAGAGUGCCUAUGCCCACAGCCCAGUGGGUCCUUGUUCAGUUCUUGUCCAGGCCUUUGGGUGAGGGACACUGGUAGGGAUC | 0.192 |
| ACACCCCCUUCUUCCUGAGAAUUCUGGUGCCUCUAAAGCCCCUCCUUGCCACUCAGGGUUUUAGUGGGUGCUCCCACUGCUCAGUGUACCCAUGAGCUGUCGUCAUUCAC | 0.481 |
| GAUGCAUUGUCCUGCUAACCCACAAACCUGUUUGGAAAUAAACAUGGAAGAAUAUCUGGCAGGCUUACUUUUAGAAGACGACAAAUCGGUAAGGCUUAUUCAUGGUUCAU | 0.34 |
| UUGGGGUCACUCUAUCUCACAUUUUUUUUGGUUAGCAUUUUAAAAAUGCAAAGCCACAUACUUUGAAAUAUAUUAUUCCAAAUUGAGCUCCCUUCCCUUUGCACAUAUUU | 0.898 |
| AUUGCUUUGACUAAAUCUGCUCAGGGGGAAUGUAAAACAGAUUAUAUUUUAUAAACCACUAGUGCCUUUGGGUUUCUUUGCCAAAAACUUAAGCCAGCCUCUAUCACCAA | 0.516 |
| GUAGCGCCGACCGAAGGUGAUUCCAGUUGUAUAUGUCACGCAGCAUUCGAAGGGACUGUGCACGCUCUAAAGAUCACAGUUGCUUCUAAGCCAGAUUUCAUUUCUAUUCU | 0.314 |

Series 2
Target: CCNB1, cyclin fold, Cln2 fusion (human)
Method: yeast growth competition, sequencing
Matrix: yeast
Setting: strong parent motif
Reference: not given
Reading: higher = stronger binding
Starting sequence: RBL2 docking peptide (human); STTRRRLFVENDS
| Substitution | normalised enrichment score |
| --- | --- |
| S13P | 1.87 |
| R5Y | 0.729 |
| R5H | 0.519 |
| L7T | 0.481 |
| F8A | 0.218 |
| E10W | 0.187 |
| R5K F8L | 0.396 |
| S1W | 1 |
| R5S | 0.255 |
| T3M | 0.398 |
| S1V | 0.95 |
| R4M | 0.153 |
| R6D | 0.0153 |

Series 3
Target: Interferon regulatory factor 5, full length, phosphomimetic (IRF5, Homo sapiens, UniProt Q13568-2, residues 1-514, S451D/S453D/S456D/S462D)
Method: protein-binding microarray
Form: double-stranded DNA, one strand shown
Matrix: in vitro
Concentration: 940 nM top
Setting: 60-bp whole probe
Added: salmon DNA 0.4 mg/ml
Reference: random background probes
Reading: higher = stronger binding
Shared flanks, not repeated: GCCTAGCAC … GTCTTGATTCGCTTGACGCTGCTG
| Oligonucleotide | fitted relative affinity [z-score] |
| --- | --- |
| GACGGTATCGGGTACCGGGACGTGCTA | 5.64 |
| TCAAAAATGATTTTTTTACTGTGCTAG | -0.166 |
| TTAGGTTTCCTTAACCTTTAGTGCTAG | 1.13 |
| TTAGATCTCGGGACTGGATTAGTGCTA | 0.36 |
| TTAGGTTTCGGACTGGGTTCGTGCTAG | 7.79 |
| TTAGTTTTCGGTATCGGTTAGTGCTAG | 8.32 |
| GACGAACTTGGGTTTCGAGACGTGCTA | 1.98 |
| GACGGTTCCCTTTTCCTTACGTGCTAG | 0.883 |
| CCTTCTCTAACCTCTCTAATAGTGCTA | 1.29 |
| TTAGATTTCGGGACTGGATGAGTGCTA | 0.862 |
| TCAGCTTTCTTTATGCAACTGTGCTAG | 0.819 |
| GACGGTAGCGGACTGGGGACGTGCTAG | -0.53 |
| GACGGTATCGGTATCTGGACGTGCTAG | 7.82 |
| GACGATTTCGGGACTGGAGAGGTGCTA | -0.232 |
| TCATCTTCCCCTCTCATACTGTGCTAG | 1.35 |
| TTAGTTTTCAGTATCGATTAGTGCTAG | 6.78 |
| GACGGACTGGGGTATCGGGAGGTGCTA | 0.232 |
| GACGCACTGGGTATCGGGACGTGCTAG | 0.722 |
| TCATATATGAATATATAACTGTGCTAG | 0.203 |
| CTACGTCTGATTTTGCTTTCGTGCTAG | 0.961 |
| TCATGTGTCTGATTATTACTGTGCTAG | 0.454 |
| GTAGATTTCGGGTTTCGATTAGTGCTA | 5.86 |
| ATATATATATTATATATTTATGTGCTA | 0.214 |
| TTAGGTATCCTAATGCTTTAGTGCTAG | -0.0998 |
| TCCTTTATGTCCTGTCTACATGTGCTA | 0.914 |

Series 4
Target: Sal-like protein 4, full length isoform A (SALL4, Homo sapiens, UniProt Q9UJQ4, residues 1-1053)
Chain of UniProt Q9UJQ4 (whole entry, looked up): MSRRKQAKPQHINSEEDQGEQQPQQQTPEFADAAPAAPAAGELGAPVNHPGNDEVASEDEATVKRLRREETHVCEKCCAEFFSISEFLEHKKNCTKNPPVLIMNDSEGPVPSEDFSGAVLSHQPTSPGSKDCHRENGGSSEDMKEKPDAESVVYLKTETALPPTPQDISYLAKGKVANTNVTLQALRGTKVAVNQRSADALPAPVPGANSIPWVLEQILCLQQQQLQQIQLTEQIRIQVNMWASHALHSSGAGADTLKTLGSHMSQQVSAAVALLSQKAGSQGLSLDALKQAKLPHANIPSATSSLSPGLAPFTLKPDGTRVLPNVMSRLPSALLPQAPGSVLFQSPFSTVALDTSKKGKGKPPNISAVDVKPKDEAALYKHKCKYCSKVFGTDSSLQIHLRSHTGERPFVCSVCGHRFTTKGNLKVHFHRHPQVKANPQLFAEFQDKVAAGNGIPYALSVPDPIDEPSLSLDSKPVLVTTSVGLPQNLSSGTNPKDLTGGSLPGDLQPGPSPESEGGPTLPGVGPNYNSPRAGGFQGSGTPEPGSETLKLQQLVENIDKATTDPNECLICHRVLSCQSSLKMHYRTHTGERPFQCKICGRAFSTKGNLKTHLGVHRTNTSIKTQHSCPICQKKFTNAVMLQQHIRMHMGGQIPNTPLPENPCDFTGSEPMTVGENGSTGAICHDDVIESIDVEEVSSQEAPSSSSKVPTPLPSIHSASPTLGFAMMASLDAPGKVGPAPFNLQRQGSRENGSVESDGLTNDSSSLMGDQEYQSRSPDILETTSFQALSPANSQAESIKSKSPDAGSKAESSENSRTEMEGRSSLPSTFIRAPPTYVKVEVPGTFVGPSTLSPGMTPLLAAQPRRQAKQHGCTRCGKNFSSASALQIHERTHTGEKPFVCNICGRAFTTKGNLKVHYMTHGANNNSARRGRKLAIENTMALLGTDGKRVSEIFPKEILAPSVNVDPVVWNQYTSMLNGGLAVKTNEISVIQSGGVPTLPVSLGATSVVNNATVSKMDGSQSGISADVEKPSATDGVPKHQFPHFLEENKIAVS
Method: universal PBM
Form: double-stranded DNA, one strand shown
Matrix: in vitro
Concentration: 600 nM
Setting: 8-mer, flanks averaged, mean of replicates
Reading: higher = stronger binding
| Oligonucleotide | E-score |
| --- | --- |
| AAGGCATT | 0.0189 |
| AACGCCGT | -0.144 |
| TAATAGTA | 0.297 |
| GGACGGAA | -0.135 |
| CTACGTCC | -0.108 |
| GCCAGGCC | -0.348 |
| CCCGCACA | -0.253 |
| CGTGCCCA | -0.124 |
| AGACCTAG | -0.105 |
| AACGGCGC | -0.383 |
| ACGAAAGG | 0.058 |
| CCCGTTAA | -0.106 |
| AAACGTCA | 0.103 |
| GGACGGCC | -0.342 |
| GAACCAAA | -0.0922 |
| ACGAAACA | 0.0334 |
| GTTTGAGA | 0.0826 |
| GGCCGCAA | -0.23 |
| AGCACTGA | 0.0333 |
| ACGTTTTG | 0.0935 |
| ATGAAAAG | 0.103 |
| AGGGGGAC | -0.335 |
| CTCCGAAC | -0.234 |

Series 5
Target: Histone acetyltransferase KAT6A, winged helix 1, GST fusion (KAT6A, Homo sapiens, UniProt Q92794, residues 1-85)
Method: protein binding microarray
Form: double-stranded DNA, one strand shown
Matrix: in vitro
Concentration: not given
Setting: 8-mer, flanks averaged, mean of 2 arrays, mostly near background
Reference: not given
Reading: higher = stronger binding
Target sequence (chain): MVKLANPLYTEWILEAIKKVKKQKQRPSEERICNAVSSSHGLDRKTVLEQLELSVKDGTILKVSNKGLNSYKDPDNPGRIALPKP
| Oligonucleotide | E-score |
| --- | --- |
| CCCGATCG | 0.221 |
| CAATAATG | -0.0217 |
| TGGAATAA | -0.19 |
| CCACGCAC | 0.236 |
| CATACGGG | 0.359 |
| CTTCTTTC | -0.186 |
| ATTCGCGC | 0.392 |
| AATCAGCG | 0.158 |
| ACCGATGC | 0.122 |
| AAAACCAA | -0.0774 |
| ACCCTGAC | -0.151 |
| CGATATGC | 0.0947 |
| ACAACGTA | -0.215 |
| CGAGCATC | -0.16 |
| TCGCGGAA | 0.285 |
| AACTGGTG | -0.163 |
| CATCTTAG | -0.129 |
| CGAAGTGA | -0.184 |
| CATTGGAA | -0.151 |
| TCTCAGAA | -0.186 |
| GCAATCTA | -0.106 |
| GAGCAGCA | -0.0644 |
| CATTTTTC | -0.123 |
| AAAATATT | -0.121 |
| GAGCACCA | -0.149 |
